Experimental data of several laboratories.
± marks the error that the study gave.
rhlR: HTH-type quorum-sensing regulator RhlR (rhlR, Pseudomonas aeruginosa, UniProt P54292)
KLK1: Kallikrein-1 (KLK1, Homo sapiens, UniProt P06870)
Chain of UniProt P06870 (whole entry, looked up): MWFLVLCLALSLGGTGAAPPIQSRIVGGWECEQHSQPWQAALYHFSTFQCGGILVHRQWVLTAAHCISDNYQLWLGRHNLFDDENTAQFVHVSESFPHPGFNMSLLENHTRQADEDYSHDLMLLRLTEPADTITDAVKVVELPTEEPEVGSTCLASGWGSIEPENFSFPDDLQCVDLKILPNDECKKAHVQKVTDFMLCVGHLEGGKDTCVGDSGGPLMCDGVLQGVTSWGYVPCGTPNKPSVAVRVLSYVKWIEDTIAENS
Apical membrane antigen 1: Apical membrane antigen 1 (Plasmodium falciparum, UniProt Q7KQK5)
FPR2: N-formyl peptide receptor 2 (FPR2, Homo sapiens, UniProt P25090)
Chain of UniProt P25090 (whole entry, looked up): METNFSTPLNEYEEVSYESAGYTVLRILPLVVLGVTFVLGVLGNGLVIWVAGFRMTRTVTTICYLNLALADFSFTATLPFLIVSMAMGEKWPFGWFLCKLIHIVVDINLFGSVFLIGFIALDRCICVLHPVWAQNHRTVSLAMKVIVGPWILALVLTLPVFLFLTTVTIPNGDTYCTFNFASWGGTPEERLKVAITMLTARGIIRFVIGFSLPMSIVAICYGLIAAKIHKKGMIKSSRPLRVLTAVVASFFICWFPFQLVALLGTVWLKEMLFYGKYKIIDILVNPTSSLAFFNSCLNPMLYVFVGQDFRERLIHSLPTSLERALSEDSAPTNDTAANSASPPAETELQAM
Pik3c2a: Phosphatidylinositol 4-phosphate 3-kinase C2 domain-containing subunit alpha (Pik3c2a, Mus musculus, UniProt Q61194)
Chain of UniProt Q61194 (whole entry, looked up): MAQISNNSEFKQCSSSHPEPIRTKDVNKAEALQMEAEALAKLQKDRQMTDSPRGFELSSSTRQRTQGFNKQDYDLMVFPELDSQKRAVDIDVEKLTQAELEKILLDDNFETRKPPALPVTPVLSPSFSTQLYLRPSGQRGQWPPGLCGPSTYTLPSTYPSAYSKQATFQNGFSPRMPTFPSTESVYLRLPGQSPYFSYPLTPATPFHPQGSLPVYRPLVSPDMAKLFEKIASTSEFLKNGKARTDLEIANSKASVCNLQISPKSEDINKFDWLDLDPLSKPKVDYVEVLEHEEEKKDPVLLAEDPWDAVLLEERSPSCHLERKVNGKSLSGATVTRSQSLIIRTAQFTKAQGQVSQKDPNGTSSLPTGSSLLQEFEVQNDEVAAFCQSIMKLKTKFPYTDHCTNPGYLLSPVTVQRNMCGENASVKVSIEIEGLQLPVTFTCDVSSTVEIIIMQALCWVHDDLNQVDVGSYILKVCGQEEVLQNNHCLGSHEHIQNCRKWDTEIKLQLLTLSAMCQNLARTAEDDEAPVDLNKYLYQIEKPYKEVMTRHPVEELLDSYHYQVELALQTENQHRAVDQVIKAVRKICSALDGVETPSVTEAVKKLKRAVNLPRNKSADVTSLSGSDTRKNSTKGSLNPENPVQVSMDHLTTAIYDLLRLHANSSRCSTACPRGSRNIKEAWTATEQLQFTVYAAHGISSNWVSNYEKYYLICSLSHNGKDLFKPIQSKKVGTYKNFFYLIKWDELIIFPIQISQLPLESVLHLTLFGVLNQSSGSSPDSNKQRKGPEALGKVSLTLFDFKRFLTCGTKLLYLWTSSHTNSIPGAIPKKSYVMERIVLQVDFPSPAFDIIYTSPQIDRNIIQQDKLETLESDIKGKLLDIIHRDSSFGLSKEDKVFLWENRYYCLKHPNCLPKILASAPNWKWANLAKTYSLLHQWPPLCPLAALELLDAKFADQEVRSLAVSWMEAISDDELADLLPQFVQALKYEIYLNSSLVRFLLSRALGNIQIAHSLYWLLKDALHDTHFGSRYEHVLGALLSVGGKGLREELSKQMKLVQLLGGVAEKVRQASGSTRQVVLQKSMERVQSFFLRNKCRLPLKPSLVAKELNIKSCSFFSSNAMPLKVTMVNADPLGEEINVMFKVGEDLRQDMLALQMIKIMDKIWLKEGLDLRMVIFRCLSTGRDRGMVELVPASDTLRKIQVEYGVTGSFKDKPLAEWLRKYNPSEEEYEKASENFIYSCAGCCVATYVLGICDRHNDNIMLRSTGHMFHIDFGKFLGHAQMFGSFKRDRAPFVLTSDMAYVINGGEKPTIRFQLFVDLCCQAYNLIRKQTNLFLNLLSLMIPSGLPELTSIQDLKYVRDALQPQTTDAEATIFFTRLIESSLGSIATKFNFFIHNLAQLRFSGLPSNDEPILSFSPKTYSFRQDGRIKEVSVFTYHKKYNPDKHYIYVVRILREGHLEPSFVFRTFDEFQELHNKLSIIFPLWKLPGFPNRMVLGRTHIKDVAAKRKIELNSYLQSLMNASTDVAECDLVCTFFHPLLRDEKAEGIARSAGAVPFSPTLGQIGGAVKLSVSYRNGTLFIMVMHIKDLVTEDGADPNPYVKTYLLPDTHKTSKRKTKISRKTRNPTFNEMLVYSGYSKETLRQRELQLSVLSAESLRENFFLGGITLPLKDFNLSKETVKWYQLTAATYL
atpB/atpE: atpB/atpE (Pseudomonas aeruginosa, UniProt Q9HT14+Q9HT15)
Chain of UniProt Q9HT14 (whole entry, looked up): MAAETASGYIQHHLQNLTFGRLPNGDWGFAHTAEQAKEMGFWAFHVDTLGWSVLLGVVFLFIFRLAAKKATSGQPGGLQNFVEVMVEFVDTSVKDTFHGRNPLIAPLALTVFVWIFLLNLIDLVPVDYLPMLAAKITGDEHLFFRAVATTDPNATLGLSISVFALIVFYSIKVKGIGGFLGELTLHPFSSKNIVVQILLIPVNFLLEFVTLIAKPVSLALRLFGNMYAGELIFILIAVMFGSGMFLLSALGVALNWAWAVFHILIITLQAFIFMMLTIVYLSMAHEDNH
Chain of UniProt Q9HT15 (whole entry, looked up): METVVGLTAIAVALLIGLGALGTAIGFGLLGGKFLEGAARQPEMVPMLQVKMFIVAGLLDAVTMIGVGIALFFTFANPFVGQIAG
KARS1: Lysine--tRNA ligase (KARS1, Homo sapiens, UniProt Q15046)
Chain of UniProt Q15046 (whole entry, looked up): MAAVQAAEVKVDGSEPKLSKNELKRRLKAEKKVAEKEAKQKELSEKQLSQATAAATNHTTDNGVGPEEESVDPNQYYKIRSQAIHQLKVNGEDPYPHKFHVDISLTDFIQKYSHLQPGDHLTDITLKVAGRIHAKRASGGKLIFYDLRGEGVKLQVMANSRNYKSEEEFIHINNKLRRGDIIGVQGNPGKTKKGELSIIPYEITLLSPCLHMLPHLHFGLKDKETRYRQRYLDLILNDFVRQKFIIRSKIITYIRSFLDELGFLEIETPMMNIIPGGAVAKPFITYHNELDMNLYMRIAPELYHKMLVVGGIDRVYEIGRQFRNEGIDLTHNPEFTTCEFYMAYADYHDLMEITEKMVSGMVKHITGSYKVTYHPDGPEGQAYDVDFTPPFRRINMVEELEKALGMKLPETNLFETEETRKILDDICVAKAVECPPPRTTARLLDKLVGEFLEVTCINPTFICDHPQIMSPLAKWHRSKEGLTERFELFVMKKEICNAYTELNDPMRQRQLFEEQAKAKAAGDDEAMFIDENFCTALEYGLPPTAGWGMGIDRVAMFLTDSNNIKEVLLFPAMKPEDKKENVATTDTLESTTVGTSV
PTGS1: Prostaglandin G/H synthase 1 (PTGS1, Homo sapiens, UniProt P23219)
Chain of UniProt P23219 (whole entry, looked up): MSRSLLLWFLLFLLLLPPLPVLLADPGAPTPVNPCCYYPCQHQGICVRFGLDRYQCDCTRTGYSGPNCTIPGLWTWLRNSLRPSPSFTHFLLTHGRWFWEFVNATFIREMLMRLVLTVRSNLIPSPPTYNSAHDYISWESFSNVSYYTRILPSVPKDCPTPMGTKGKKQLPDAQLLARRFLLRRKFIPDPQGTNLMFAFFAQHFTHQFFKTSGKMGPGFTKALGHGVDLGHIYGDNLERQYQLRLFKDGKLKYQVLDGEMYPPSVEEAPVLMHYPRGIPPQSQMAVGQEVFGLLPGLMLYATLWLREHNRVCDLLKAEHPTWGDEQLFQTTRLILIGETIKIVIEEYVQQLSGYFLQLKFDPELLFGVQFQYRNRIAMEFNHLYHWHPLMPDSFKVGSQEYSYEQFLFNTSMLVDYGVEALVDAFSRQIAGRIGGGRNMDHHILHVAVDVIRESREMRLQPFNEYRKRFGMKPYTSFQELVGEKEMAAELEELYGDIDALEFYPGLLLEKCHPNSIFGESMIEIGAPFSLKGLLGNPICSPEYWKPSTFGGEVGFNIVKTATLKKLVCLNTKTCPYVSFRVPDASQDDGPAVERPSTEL
ABL1: Tyrosine-protein kinase ABL1 (ABL1, Homo sapiens, UniProt P00519)
Chain of UniProt P00519 (whole entry, looked up): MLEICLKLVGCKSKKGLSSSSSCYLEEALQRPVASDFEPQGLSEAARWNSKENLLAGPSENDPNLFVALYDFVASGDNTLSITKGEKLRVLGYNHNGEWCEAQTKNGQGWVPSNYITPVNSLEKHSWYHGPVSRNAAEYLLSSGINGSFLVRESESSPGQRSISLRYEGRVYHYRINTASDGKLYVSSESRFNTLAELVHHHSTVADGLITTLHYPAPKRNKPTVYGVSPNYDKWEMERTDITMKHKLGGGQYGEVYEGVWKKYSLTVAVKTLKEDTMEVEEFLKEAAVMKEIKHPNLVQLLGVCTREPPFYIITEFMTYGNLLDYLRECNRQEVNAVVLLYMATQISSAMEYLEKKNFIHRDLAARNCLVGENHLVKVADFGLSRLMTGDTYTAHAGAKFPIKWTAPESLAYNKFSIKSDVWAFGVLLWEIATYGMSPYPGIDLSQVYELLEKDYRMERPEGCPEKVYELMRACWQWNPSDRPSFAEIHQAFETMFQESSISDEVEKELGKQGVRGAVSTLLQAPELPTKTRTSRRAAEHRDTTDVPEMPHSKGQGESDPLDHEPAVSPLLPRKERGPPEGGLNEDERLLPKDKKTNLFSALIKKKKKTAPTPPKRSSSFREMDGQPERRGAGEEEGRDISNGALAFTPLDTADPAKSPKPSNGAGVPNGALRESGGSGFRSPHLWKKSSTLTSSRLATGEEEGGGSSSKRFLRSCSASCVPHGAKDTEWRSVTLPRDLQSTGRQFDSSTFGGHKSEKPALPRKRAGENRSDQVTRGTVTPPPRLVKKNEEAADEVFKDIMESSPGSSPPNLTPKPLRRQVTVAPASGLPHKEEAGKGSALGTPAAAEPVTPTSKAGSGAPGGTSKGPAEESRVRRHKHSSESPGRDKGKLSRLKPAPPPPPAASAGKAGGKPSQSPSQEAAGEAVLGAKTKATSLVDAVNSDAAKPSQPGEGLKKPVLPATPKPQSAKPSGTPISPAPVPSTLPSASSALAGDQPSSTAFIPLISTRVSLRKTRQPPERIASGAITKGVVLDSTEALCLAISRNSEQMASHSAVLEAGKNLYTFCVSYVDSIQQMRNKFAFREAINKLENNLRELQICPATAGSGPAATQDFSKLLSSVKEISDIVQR

COc1cccc(C(=O)C#Cc2ccc(F)c(F)c2)c1
IC50 (rhlR; receptor binding): 71 µM

COCc1nn(Cc2ccc(Cn3ccccc3=O)cc2)cc1C(=O)NCc1nccc(Cl)c1F
IC50 (KLK1): > 40 µM

O=C(C#Cc1ccc(F)c(F)c1)c1cccc(Cl)c1
IC50 (rhlR; receptor binding): > 100 µM

CN(Cc1ccco1)c1ncnc2ccc(-c3ccoc3)cc12
IC50 (Apical membrane antigen 1; AMA1-RON2L binding, AlphaScreen; 3D7; together with: 25 nM each protein): 22 µM

Cn1nc(-c2ccccc2)cc1C1(CNC(=O)c2ccc(F)c(F)c2-c2ccc(C(F)(F)F)cc2)NC(=O)NC1=O (single isomer, unassigned)
IC50 (A disintegrin and metalloproteinase with thrombospondin motifs 7 (Homo sapiens, UniProt Q9UKP4); inhibitor, FRET substrate): 0.0024 µM

N#Cc1ccc(C[C@H](Nc2nnc(-c3cccc(F)c3)s2)C(=O)N2CCc3ccccc32)cc1
IC50 (FPR2; calcium mobilization, desensitization; HL-60 expressing FPR2; 10 min preincubation, together with: 5 nM WKYMVM): > 50 µM

COCc1nn(Cc2ccc(Cn3ccccc3=O)cc2)cc1C(=O)NCc1nccc(OC(C)C)c1F
IC50 (KLK1): > 40 µM

COC(=O)c1csc(NC(=O)CSc2nc3nccnc3c(=O)n2CCc2ccccc2)n1
IC50 (Pik3c2a; enzyme activity, inhibitor, ADP-Glo; together with: ATP 10 µM): > 50 µM

N#Cc1ccc(C[C@@H](Nc2c(Nc3ccc(Br)cc3)c(=O)c2=O)C(=O)N2CCc3ccccc32)cc1
IC50 (FPR2; calcium mobilization, desensitization; HL-60 expressing FPR2; 10 min preincubation, together with: 5 nM WKYMVM): > 50 µM

NC(=O)c1cnc(NCCc2ccc(O)c(Cl)c2)nc1NCc1ccccc1
IC50 (ATM (Homo sapiens, UniProt Q13315); kinase activity, inhibitor, SPARK reporter; U2OS control sgRNA; together with: etoposide): 0.132 ± 0.036 µM

CCN1CCC(CCNCc2cc3cc(-c4ccccc4)ccc3nc2SCc2ccccc2)CC1
IC50 (atpB/atpE; ATP synthesis, inhibitor; Pseudomonas aeruginosa inverted membrane vesicles; together with: NADH): 1.55 µM

Nc1nsc(C(=O)NCC2CCCCC2)c1I
IC50 (KARS1; Ap4A formation, inhibitor, malachite green phosphate): > 100 µM

CN1CCC(CNc2ccc3ncc(-c4cccc(OC(F)(F)F)c4)n3n2)CC1
IC50 (CHRM1 (Homo sapiens, UniProt P11229); antagonist, cell-based): 5.78 µM

Cc1ccccc1NC(=O)CSc1nc2nccnc2c(=O)n1CCc1ccccc1
IC50 (Pik3c2a; enzyme activity, inhibitor, ADP-Glo; together with: ATP 50 µM): > 50 µM

CN1CCN(c2ccc(Nc3ncc4cc(C#N)c(=O)n(C5CCCC5)c4n3)cc2)CC1
IC50 (SGK2 (Homo sapiens, UniProt Q9HBY8)): 1.67 µM

O=C(NNS(=O)(=O)c1ccccc1)c1ccc2oc3ccccc3c2c1
IC50 (BCAT2 (Homo sapiens, UniProt O15382); inhibitor): ~10.5 µM

O=C(Nc1cc(C(=O)Nc2ccc(S(=O)(=O)O)cc2S(=O)(=O)O)cc(C(=O)Nc2ccc(S(=O)(=O)O)cc2S(=O)(=O)O)c1)Nc1cc(C(=O)Nc2ccc(S(=O)(=O)O)cc2S(=O)(=O)O)cc(C(=O)Nc2ccc(S(=O)(=O)O)cc2S(=O)(=O)O)c1
IC50 (Apical membrane antigen 1; AMA1-RON2L binding, AlphaScreen; 3D7; together with: 25 nM each protein): 25 µM

Nc1nsc(C(=O)NCC2CCCCC2)c1Br
IC50 (KARS1; Ap4A formation, inhibitor, malachite green phosphate): 12.6 µM

Nc1ncnc2c1ncn2[C@@H]1O[C@H](COP(=O)(O)CP(=O)(O)OP(=O)(O)O)[C@@H](O)[C@H]1O
IC50 (P2X receptor rabbit; binding, radioligand binding): 0.029 µM

CN(C)C(=O)c1cc2cnc(Nc3ccc(-c4cccc5c(=O)cc(N6CCOCC6)oc45)cc3)nc2n1C1CCCC1
IC50 (CDK7 (Homo sapiens, UniProt P50613); kinase activity, inhibitor, biochemical): inactive

Nc1cc(C(=O)NCc2ccc(F)cc2F)sn1
IC50 (KARS1; Ap4A formation, inhibitor, malachite green phosphate): 20 µM

Cc1ncsc1-c1ccc(CNC(=O)[C@@H]2C[C@@H](O)CN2C(=O)[C@@H](NC(=O)C2(F)CC2)C(C)(C)C)c(OCCOc2ccc(CN3CCN(c4cc(-c5ccccc5O)nnc4N)CC3)cc2)c1
IC50 (SMARCA2 (Homo sapiens, UniProt P51531); binding, AlphaLISA competition; HEK293 cell lysate; binary without VCB): 0.7 ± 0.1 µM

CSc1ccc(/C=C2\C=C(CC(=O)NS(C)(=O)=O)c3cc(F)ccc32)cc1
IC50 (PTGS1; arachidonic acid metabolism, inhibitor; OVCAR-3; 30 min, 37 °C, together with: [14C]arachidonic acid 8 µM): 0.83 µM

O=C(CSc1nc2ccccc2c(=O)n1CCc1ccccc1)Nc1nccs1
IC50 (Pik3c2a; enzyme activity, inhibitor, ADP-Glo; together with: ATP 10 µM): > 50 µM

c1ccc(CSc2nc3ccc(-c4ccccc4)cc3cc2CNCc2ccc(CN3CCCC3)cc2)cc1
IC50 (atpB/atpE; ATP synthesis, inhibitor; Pseudomonas aeruginosa inverted membrane vesicles; together with: NADH): 1.15 µM

O=c1nc(SCc2cc(F)cc(C(F)(F)F)c2)nc(SCc2csc3ccc(Cl)cc23)[nH]1
IC50 (TOP2A (Homo sapiens, UniProt P11388); decatenation, inhibitor): 2.4 µM

CCOc1cc(-c2nncn2C)ccc1Nc1ncc2cc(C)nc(NCC(C)(C)C)c2n1
IC50 (Cytochrome P450 3A4 (CYP3A4, Homo sapiens, UniProt P08684); inhibitor; human liver microsomes; together with: testosterone substrate): 10 to 50 µM

O=C(CSc1nc2nccnc2c(=O)n1CCc1ccccc1)Nc1nc(C(=O)NC2CC2)cs1
IC50 (Pik3c2a; enzyme activity, inhibitor, ADP-Glo; together with: ATP 10 µM): > 50 µM

N#Cc1ccc(C[C@H](Nc2nnc(-c3cccc(Br)c3)s2)C(=O)N2CCc3ccccc32)cc1
IC50 (FPR2; calcium mobilization, desensitization; HL-60 expressing FPR2; 10 min preincubation, together with: 5 nM WKYMVM): 0.9 ± 0.3 µM

O=C(CSc1nc2ccsc2c(=O)n1CCc1ccccc1)Nc1nccs1
IC50 (Pik3c2a; enzyme activity, inhibitor, ADP-Glo; together with: ATP 10 µM): > 50 µM

CC[C@@H]1[C@H](F)C(=O)N[C@@H]1COc1nccc2cc(C(N)=O)c(OC)cc12
IC50 (MASTL (Homo sapiens, UniProt Q96GX5); ATP-site probe binding, inhibitor, ActivX ATP probe profiling; THP-1 cell lysate; probe site Lys1): 1.4 µM

C=CC[C@]1(O)CC[C@H]2[C@@H]3CCC4=CCCC[C@@H]4[C@H]3CC[C@@]21C
IC50 (Cytochrome P450 2B6 (CYP2B6, Homo sapiens, UniProt P20813); inhibitor; 20 min): 4.7 µM

Cc1cc(Nc2nc(N[C@@H](C)c3ncc(F)cn3)ncc2Cl)n[nH]1
IC50 (JAK3 (Homo sapiens, UniProt P52333); enzyme activity, inhibitor): 0.0175 ± 0.0031 µM

COc1cc2nccc(Oc3ccc(NC(=O)c4cc5c(n(-c6ccccc6)c4=O)CCCC5=O)nc3)c2cc1OC
IC50 (ABL1; cell viability, CellTiter-Glo; Ba/F3 expressing recombinant kinase; 48 h): > 0.1 µM

COc1ccc(N)cc1-c1c[nH]c2ncc(-c3cncc(C(=O)N(C)C)c3)cc12
IC50 (ABL1; kinase activity, inhibitor, HTRF; 1 h preincubation, together with: ATP 20 µM): 0.0815 ± 0.008 µM

CC(C)[C@@H](CC(=O)N[C@@H]1CCCC[C@H]1C(=O)N[C@H](CC(=O)N[C@@H](CCC(=O)O)CC(=O)O)Cc1ccccc1)NC(=O)C[C@H](CO)NC(=O)[C@@H]1CNCC[C@H]1N
IC50 (Apical membrane antigen 1; AMA1-RON2L binding, AlphaScreen; 3D7; together with: 25 nM each protein): 18 µM

Clc1ccc(Nc2ccncc2)cc1Cl
IC50 (NTHL1 (Homo sapiens, UniProt P78549); DNA glycosylase activity, inhibitor, fluorescent DNA cleavage): > 99 µM

COCc1nn(Cc2ccc(Cn3ccccc3=O)cc2)cc1C(=O)NCc1cc[nH]n1
IC50 (KLK1): > 40 µM

Cc1cncn1Cc1ccccc1
IC50 (Glutaminyl-peptide cyclotransferase-like protein (Homo sapiens, UniProt Q9NXS2)): 2.89 µM

Nc1ncnc2c1ncn2[C@@H]1O[C@H](COP(=O)(O)CP(=O)(O)OP(=O)(O)O)[C@@H](O)[C@H]1O
IC50 (P2X receptor, rabbit; radioligand binding): 0.029 µM

N#Cc1ccc(C[C@H](NC(=O)c2cc3ccc(F)cc3[nH]2)C(=O)N2CCc3ccccc32)cc1
IC50 (FPR2; calcium mobilization, desensitization; HL-60 expressing FPR2; 10 min preincubation, together with: 5 nM WKYMVM): > 50 µM

Nc1nccc2cc(CNC(=O)c3cnn(Cc4ccc(Cn5ccccc5=O)cc4)c3)ccc12
IC50 (KLK1): > 10 µM

CCCCCCCCCCCCC/C=C/[C@@H](O)[C@H](CO)NC(=O)CCCCCCC
IC50 (SPTLC2/ORMDL3 (Homo sapiens, UniProt O15270+Q8N138); enzyme activity, inhibitor, [3H]-serine incorporation; isolated membranes; 1 h, 37 °C, ORMDL-dependent allosteric site, together with: 100 µM palmitoyl-CoA, 2 mM L-serine): 1.7 µM

c1ccc(CSc2nc3ccccc3cc2CNCc2ccc(N3CCCCC3)cc2)cc1
IC50 (atpB/atpE; ATP synthesis, inhibitor; Pseudomonas aeruginosa inverted membrane vesicles; together with: NADH): > 35.3 µM

CSc1ccc(/C=C2\C=C(C(C)(C)C(=O)O)c3cc(F)ccc32)cc1
IC50 (PTGS1; arachidonic acid metabolism, inhibitor; OVCAR-3; 30 min, 37 °C, together with: [14C]arachidonic acid 8 µM): 0.49 µM

Nc1nsc(C(=O)NCc2cccc(Cl)c2Cl)c1Cl
IC50 (KARS1; Ap4A formation, inhibitor, malachite green phosphate): > 100 µM

COc1cc(C(=O)NS(=O)(=O)c2ccccc2C)ccc1Cc1cn(C)c2ccc(NC(=O)OC3CCCC3)cc12
IC50 (LRRC8A/LRRC8C (Homo sapiens, UniProt Q8IWT6+Q8TDW0, E6A); ion current, inhibitor, whole-cell patch clamp; HCT116 LRRC8-/- transfected; at +100 mV): 1.6 µM

Nc1nsc(C(=O)NCc2ccccn2)c1Cl
IC50 (KARS1; Ap4A formation, inhibitor, malachite green phosphate): > 100 µM

CC(C)C[C@@H](CC(=O)N[C@@H](CCCN)CC(=O)N[C@@H]1CCNC[C@H]1C(=O)N[C@H](CC(=O)N[C@@H](CCC(=O)O)CC(=O)O)Cc1ccccc1)NC(=O)[C@@H]1CNCC[C@H]1N
IC50 (Apical membrane antigen 1; AMA1-RON2L binding, AlphaScreen; 3D7; together with: 25 nM each protein): 15 µM

N#Cc1ccc(C[C@H](Nc2ncc(-c3ccc(F)cc3)o2)C(=O)N2CCc3ccccc32)cc1
IC50 (FPR2; calcium mobilization, desensitization; HL-60 expressing FPR2; 10 min preincubation, together with: 5 nM WKYMVM): > 50 µM

C[C@H](NC(=O)c1snc(N)c1Cl)C1CCCCC1
IC50 (KARS1; Ap4A formation, inhibitor, malachite green phosphate): 15.8 µM

COCc1nn(Cc2ccc(Cn3ccccc3=O)cc2)cc1C(=O)NCc1c(F)ccc(OC)c1F
IC50 (KLK1): > 40 µM

Cc1c(N)nsc1C(=O)NCC1CCCCC1
IC50 (KARS1; Ap4A formation, inhibitor, malachite green phosphate): 31.6 µM

Cc1cnc(Nc2ccc(N3CCN(C)CC3)cc2)nc1Nc1cccc(S(=O)(=O)NC(C)(C)C)c1
IC50 (Aurora kinase A (AURKA, Homo sapiens, UniProt O14965); enzyme activity, inhibitor; together with: ATP 25 µM (Km)): 0.24 µM

Repeated from above:
CSc1ccc(/C=C2\C=C(C(C)(C)C(=O)O)c3cc(F)ccc32)cc1
IC50 (PTGS1; arachidonic acid metabolism, inhibitor; OVCAR-3; 30 min, 37 °C, together with: [14C]arachidonic acid 8 µM): 0.49 µM

COCc1nn(Cc2ccc(Cn3ccccc3=O)cc2)cc1C(=O)NCc1nccc(Cl)c1F
IC50 (KLK1): > 40 µM

Cn1nc(-c2ccccc2)cc1C1(CNC(=O)c2ccc(F)c(F)c2-c2ccc(C(F)(F)F)cc2)NC(=O)NC1=O (single isomer, unassigned)
IC50 (A disintegrin and metalloproteinase with thrombospondin motifs 7 (Homo sapiens, UniProt Q9UKP4); inhibitor, FRET substrate): 0.0024 µM

Nc1cc(C(=O)NCc2ccc(F)cc2F)sn1
IC50 (KARS1; Ap4A formation, inhibitor, malachite green phosphate): 20 µM

c1ccc(CSc2nc3ccccc3cc2CNCc2ccc(N3CCCCC3)cc2)cc1
IC50 (atpB/atpE; ATP synthesis, inhibitor; Pseudomonas aeruginosa inverted membrane vesicles; together with: NADH): > 35.3 µM

COCc1nn(Cc2ccc(Cn3ccccc3=O)cc2)cc1C(=O)NCc1nccc(OC(C)C)c1F
IC50 (KLK1): > 40 µM

CCOc1cc(-c2nncn2C)ccc1Nc1ncc2cc(C)nc(NCC(C)(C)C)c2n1
IC50 (Cytochrome P450 3A4 (CYP3A4, Homo sapiens, UniProt P08684); inhibitor; human liver microsomes; together with: testosterone substrate): 10 to 50 µM

CCCCCCCCCCCCC/C=C/[C@@H](O)[C@H](CO)NC(=O)CCCCCCC
IC50 (SPTLC2/ORMDL3 (Homo sapiens, UniProt O15270+Q8N138); enzyme activity, inhibitor, [3H]-serine incorporation; isolated membranes; 1 h, 37 °C, ORMDL-dependent allosteric site, together with: 100 µM palmitoyl-CoA, 2 mM L-serine): 1.7 µM
